Experimental data of several laboratories.
Every numbered part comes from another study and shows a few of its results, in no order.

Study 1 — technique: protein binding microarray; form: double-stranded DNA, one strand shown; matrix: in vitro; tested at: not given; baseline: not given; reading: higher = stronger binding
Target: Histone acetyltransferase KAT6A, both winged helices, GST fusion (KAT6A, Homo sapiens, UniProt Q92794, residues 1-181)
Notes: 8-mer, flanks averaged, mean of 2 arrays, mostly near background
Target sequence (chain): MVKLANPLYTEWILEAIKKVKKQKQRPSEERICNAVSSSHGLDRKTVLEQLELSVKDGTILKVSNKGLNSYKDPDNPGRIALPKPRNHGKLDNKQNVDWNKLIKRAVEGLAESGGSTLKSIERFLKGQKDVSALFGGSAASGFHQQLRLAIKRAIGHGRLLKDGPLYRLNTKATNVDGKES
Sequence	E-score
CTCATTAC	-0.00615
ACTGACTC	-0.0631
GTATTTAA	-0.0595
CTTTACGA	0.0831
TCGCCCCA	-0.251
CCGCACAG	0.139
CCACCTAG	-0.0654
AAGGTCTG	-0.122
CACTTAAC	-0.241
CGTTTCAC	0.133
ATATGGAC	-0.126
CCGATTAC	0.131
GGTAAGAC	-0.0212
GATCGGGC	0.195
CTGAAGGA	-0.0949
GCATTGTA	0.029
AATTGAGC	-0.156
ACTAATTG	-0.101
ACAGGATC	-0.209
CATGAATA	-0.0355
CATGGAAA	-0.153
AACTGTTA	0.0805
AAAAGTCC	0.0818
GGTATGAC	0.084
TAACTCGA	-0.0619

Study 2 — technique: RNA Bind-n-Seq; form: RNA; matrix: in vitro; tested at: 1 µM; notes: whole 134-nt RNA, ends assumed; with: 150 mM KCl; baseline: input library; reading: higher = stronger binding
Target: Ras GTPase-activating protein-binding protein 1, C-terminal RGG region (G3BP1, Homo sapiens, UniProt Q13283)
Chain of UniProt Q13283 (whole entry, looked up): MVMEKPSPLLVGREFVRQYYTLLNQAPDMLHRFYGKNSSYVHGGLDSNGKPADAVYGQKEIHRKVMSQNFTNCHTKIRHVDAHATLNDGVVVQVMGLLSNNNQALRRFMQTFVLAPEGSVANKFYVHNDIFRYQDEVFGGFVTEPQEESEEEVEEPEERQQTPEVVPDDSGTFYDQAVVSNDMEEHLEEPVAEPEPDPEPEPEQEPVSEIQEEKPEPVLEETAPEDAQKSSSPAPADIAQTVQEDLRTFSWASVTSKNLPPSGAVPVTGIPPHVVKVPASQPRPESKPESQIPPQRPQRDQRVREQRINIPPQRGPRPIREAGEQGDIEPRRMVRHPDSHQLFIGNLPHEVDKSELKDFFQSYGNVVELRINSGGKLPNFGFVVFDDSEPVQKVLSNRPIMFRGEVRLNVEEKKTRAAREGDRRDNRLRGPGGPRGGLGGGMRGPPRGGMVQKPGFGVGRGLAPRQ
Sequence	log2 enrichment
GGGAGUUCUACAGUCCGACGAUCACCAUGCAGGUGGGCAUCUUUGGGAAGUGGGGCACGGGGGGGAUAGGGAGGGGGGUAACACUUUGGGAACAGGUGGUCCCAGGUCGUUUCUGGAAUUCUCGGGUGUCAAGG	-1.13
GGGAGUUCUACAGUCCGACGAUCUGAAAUGUUUUUUUCUCUGUCUUCUUUCAGGUCUUUGUUGAGUAUGCAAAUGCUGGUGAUUCCAAAGCUGCGCAGAAAUUACUGACUGGAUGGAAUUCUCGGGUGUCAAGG	-1.54
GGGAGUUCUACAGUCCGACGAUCAAGUCCUGUGCUACACAUCGUAUGUACCGAAUCGGAAAAAGGUUUGGUUUUUUUGGAAAGUAUUAUGUUACGCCGUUCGGAUCUGCACUUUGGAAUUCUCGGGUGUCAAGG	-1.86
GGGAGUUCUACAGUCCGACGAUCGUCCUGUGCUACACAUCGUAUGUACCGAAUCGGGGUUUGGGGAAAAAAAGGGGAGGGGAAAGUAUUAUGUUACGCCGUUCGGAUCUGCACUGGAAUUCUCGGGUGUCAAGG	1.9
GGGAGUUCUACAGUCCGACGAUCACCAUGCAGGUGGGCAUCUUUGGGAAGUGGGGCAAGGGGGGGAUAGGGAGGGGGAUAACACUUUGGGAACAGGUGGUCCCAGGUCGUUUCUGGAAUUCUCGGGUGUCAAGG	1.75
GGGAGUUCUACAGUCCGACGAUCCAAGUCCUGUGCUACACAUCGUAUGUACCGAAUCGGGAAAGGAAAGGGAAAGGGGAAAGUAUUAUGUUACGCCGUUCGGAUCUGCACUUCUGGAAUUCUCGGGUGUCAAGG	-0.829
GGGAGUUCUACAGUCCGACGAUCCACAGAAAACACGCACCCACACAGACACAGAGGGAAGGGGUUGGGAUGGGGACAGGGUGCACAGCAGGGCGGGGUAGGACCCCAGCCCCUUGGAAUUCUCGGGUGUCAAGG	-0.6
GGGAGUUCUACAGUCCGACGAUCGUCCUGUGCUACACAUCGUAUGUACCGAAUCGGGUUUUUGGGGUUUUUGGGUUUUUGGGAAAGUAUUAUGUUACGCCGUUCGGAUCUGCAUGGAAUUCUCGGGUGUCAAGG	0.451
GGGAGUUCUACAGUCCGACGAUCAGUCCUGUGCUACACAUCGUAUGUACCGAAUCGGUUUGGUUUUUUUGGUUUUUUUGGAAAGUAUUAUGUUACGCCGUUCGGAUCUGCACUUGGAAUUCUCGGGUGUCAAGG	-1.78
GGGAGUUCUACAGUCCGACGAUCUAACUUUAGAGGAGGAUCUGAUGGAUAUGGCAGUGGACGUGGAUUUGGGGAUGGCUAUAAUGGGUAUGGAGGAGGACCUAGAGGUGGCAAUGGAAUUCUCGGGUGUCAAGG	-1.26

Study 3 — technique: RNA Bind-n-Seq; form: RNA; matrix: in vitro; tested at: not given; baseline: input RNA pool; reading: higher = stronger binding
Target: RING finger protein unkempt homolog, zinc fingers 1-6, GST-SBP tag (UNK, Homo sapiens, UniProt Q9C0B0, residues 30-357)
Chain of UniProt Q9C0B0 (30-357, looked up): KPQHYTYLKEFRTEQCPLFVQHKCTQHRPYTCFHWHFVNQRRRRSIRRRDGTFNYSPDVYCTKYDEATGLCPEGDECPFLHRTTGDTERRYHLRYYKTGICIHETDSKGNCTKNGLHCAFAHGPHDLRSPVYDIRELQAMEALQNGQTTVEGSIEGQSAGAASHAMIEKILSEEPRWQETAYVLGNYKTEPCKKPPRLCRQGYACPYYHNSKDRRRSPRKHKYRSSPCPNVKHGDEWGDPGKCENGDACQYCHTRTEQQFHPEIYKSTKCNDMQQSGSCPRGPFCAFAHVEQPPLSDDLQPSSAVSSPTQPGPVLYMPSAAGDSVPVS
Notes: RNA with constant flanks, human and mouse sites, ends assumed
Sequence	bound/input enrichment [ratio]
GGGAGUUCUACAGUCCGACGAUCCACCAACAGUAUGUGCAGCGGAUAGAGAAGCAGUUUCUUUUGUAUGCAUACUGGAUAGGCCUGGGGAUUUUGUCCUCUGUUGGUCUUGGAACAGGACUGCACACCUUUCUGCUUUAUCUGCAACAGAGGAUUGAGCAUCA	0.0639
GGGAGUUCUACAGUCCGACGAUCGAGCGGUCCCAGGGGUCCACCAGCAACAGUGACUGGAUGAAAAACCUCAUCUCCCCUGACCUGGGGGUUGUGUUUCUCAACGUACCUGAAAACCUGAAAGACCCAGAACCCAACAUCAAGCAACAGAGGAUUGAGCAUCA	0.0803
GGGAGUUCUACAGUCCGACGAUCGACCAAGCUCUUGCUGACAUAAGAGAAAAUGAACAGAGCCUCCUGGAAUACCUAGAGAAACAGCGCAACAGAAUUGGCUGUAGGACCAUAGUCUAUUGGGGGAUUGGUAGGAACCGUUACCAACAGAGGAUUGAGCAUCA	0.667
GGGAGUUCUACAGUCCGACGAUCGCGGGCUGAGCUCAGGGCUUCCCCGGCCCGGACGCAAUCGCUCAAGUCGGGAGUCCUCCCCCAGGUCCCGGCGGAGACGCCAGCGCGAAAACGCGGACCCAAACCUCCGCGUAGCCCUGGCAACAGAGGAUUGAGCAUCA	0.119
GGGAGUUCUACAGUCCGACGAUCCUGACCCUGGCCAACAAUGUGACUCCAGCCAAAGAUGUUCCACCACUCUCAGAAACAGAGGCAACACCAGUUCCAAUUAAAGACAUGGAAAUUGCACAAACACAAAAAGGAAUAAGUGAGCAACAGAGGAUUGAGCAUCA	0.206
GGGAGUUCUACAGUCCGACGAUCCACAAAGAGGUUGACCAGAGUGAGAAACAUUUCAGUGAAGAUAAUAAUGAAUCAGUACCUAUGGAGUGCGAUUCCUUCUGUAGUGACCAGAAUGAGUCUGAAGUAGAGUCAUCCGCAAAUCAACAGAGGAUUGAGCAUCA	0.161
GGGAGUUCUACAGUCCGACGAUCACCAAGGAGUCUGAUUGCAGGAAGGGAAGAGCAUGUAAGAAAUAAGUUUUUUUAAAGUGUUAUUUUGUAUAAAUGGGAAGAAAGAUUCAAUUAAGUUAUUAACAUUUGGGACCUGGAUAACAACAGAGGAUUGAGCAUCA	0.939
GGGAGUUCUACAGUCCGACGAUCAAGUUCACUGGAAGUGAGAUUCGGGUGAGGGAUGACAAGAUGCCAUUGGCGCACCUUGCAAUAGCUGUUGAAGCAGUUGGUUGGGCCCAUCCAGACACGAUCUGUCUCAUGGUCGCAAACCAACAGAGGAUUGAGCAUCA	0.134

Study 4 — technique: RNA Bind-n-Seq; form: RNA; matrix: in vitro; tested at: 365 nM; baseline: no-protein control; reading: higher = stronger binding
Target: RNA binding protein fox-1 homolog 2, RRM domain, GST-SBP tag (RBFOX2, Homo sapiens, UniProt O43251-10, residues 100-194)
Notes: natural RNA segment, single round, ends assumed
Target sequence (chain): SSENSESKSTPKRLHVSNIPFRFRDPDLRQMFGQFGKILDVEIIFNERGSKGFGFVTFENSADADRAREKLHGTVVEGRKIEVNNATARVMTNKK
Sequence	RBNS enrichment (R)
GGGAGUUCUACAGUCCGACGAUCAACAAUCUUUUGCUAAAAAAAAAAAAAAAGAAAGAAAUUGCUUUAUGGUGAAAACUGUGGGAAGGGUUUUUUUUUUUAAUUUCAACAAAAGAAAAAGUGACCAUCUUACCUGGAAUUCUCGGGUGCCAA	0.467
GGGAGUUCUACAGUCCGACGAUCAGGAGGCGAACCCAAGUGUGUGUCUCCUCUGAAUGUCUCAGAACUCAGUUGUGAAGGAGCAGGAGGUUUAGACGAUGAAGAAAUUCUUGACUGUUUUUCAGUUGCUAUAUUGGAAUUCUCGGGUGCCAA	0.795
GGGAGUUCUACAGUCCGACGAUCAAGCAGAUGACAGAAAUGGUUUCAGCAGUUUGUGCUGUAACCAUGCCUAGAGCAAGAAACCUGCUCAGUUUUAUAAGCUCCCUUCCCAACCAAAAUGGCUUAUCGUCAUUUGGAAUUCUCGGGUGCCAA	0.246
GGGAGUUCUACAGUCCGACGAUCUGCAAGUGACAUUCCUGCGAGCUUAGUGAUAUGGUCAAGUCCAUUGCAUCAGUAAUUUAUUUUUUUCUUCUUCUGUCUGUGAUAAUUGACUUGACUGAAUUAUGGCUUGGUGGAAUUCUCGGGUGCCAA	1.02
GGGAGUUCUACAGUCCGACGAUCAGCGGACCUUCCCAGCUAGAAUUCACUCCACUUGGACAUGGGCCCCAGAUACCAUGAUGCUGAGCCCGGAAACUCCACAUCCUGUGGGACCUGGGCCAUAGUCAUUCUGCUGGAAUUCUCGGGUGCCAA	0.247
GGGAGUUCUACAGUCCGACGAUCUAGACAGUUCCAGGUCUCAGCUUCCUGUCCUCUAGUUCUGCUGUUCGGGCAUAAAAUCUUUAUCUCCAGUUCAUAUAAUCUUGAGUUUUAGAUAUACACACAUGCGUAACUGGAAUUCUCGGGUGCCAA	0.301
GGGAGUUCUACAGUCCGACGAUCAUCUUGUUGCCACAUGUGCAGCAAACAAAGUGGAAGUAUAGAUCUUCUUCUCCCUUAGGGAGGCUCUUGAAGGAGCAGGAGGUACAGUACUGGGUAGCAGUCUGGCCCUCUGGAAUUCUCGGGUGCCAA	0.205
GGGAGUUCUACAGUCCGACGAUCUUUUAAAUGGCAUGAAAUUAGGAAACUUUUGUACAUUUUAUAUACAUUUUGAGAUGAACAGAACAAUGGGCUGAGUUAUAAAAAGCGUGUAUUGAAUUUAAGAAGACAGAUGGAAUUCUCGGGUGCCAA	2.81
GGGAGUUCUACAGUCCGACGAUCGCAGAGGUGGCACGGAGGCAAUUGGGGAGUUCUUACUGAAUCCUCCUUUUCCACCCCACACCCUGAAGCCAUUGGAAAACUGGCUUCCUGUGCACUUCUAGAAUCCCAGCUGGAAUUCUCGGGUGCCAA	0.159

Excerpt of the above (study 1):
Sequence	E-score
GGTAAGAC	-0.0212
CCGCACAG	0.139
CCACCTAG	-0.0654
